Experimental data collected from several papers.
Protocols differ between the studies behind these lines. Values joined by “and” are separate records of one study, mostly repeats; a detail may differ. ± gives the spread as reported.
Chain of UniProt P04062 (whole entry, unmodified, looked up): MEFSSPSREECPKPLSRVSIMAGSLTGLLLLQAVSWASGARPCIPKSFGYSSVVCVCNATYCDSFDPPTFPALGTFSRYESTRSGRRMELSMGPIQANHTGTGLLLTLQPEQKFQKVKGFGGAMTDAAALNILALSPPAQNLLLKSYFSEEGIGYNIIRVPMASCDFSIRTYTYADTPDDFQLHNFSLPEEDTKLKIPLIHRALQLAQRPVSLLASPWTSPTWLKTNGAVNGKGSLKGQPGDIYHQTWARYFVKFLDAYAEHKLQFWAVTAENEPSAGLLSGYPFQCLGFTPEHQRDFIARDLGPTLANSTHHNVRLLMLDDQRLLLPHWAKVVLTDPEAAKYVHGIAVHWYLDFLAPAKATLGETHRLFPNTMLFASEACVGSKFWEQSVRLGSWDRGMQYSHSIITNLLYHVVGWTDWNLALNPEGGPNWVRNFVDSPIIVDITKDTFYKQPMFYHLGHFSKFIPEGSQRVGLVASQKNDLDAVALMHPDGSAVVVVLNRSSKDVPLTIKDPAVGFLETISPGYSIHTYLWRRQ

Compound | target or system | test | test system | conditions | scale | measurement | value
CC1=C[C@@H](O/C=C2/C(=O)O[C@H]3c4ccccc4C[C@@H]23)OC1=O | Arabidopsis thaliana | seed germination | Col-0 | – | – | EC50 | 160 nM
O=C1/C(=C/c2ccc(O)c(Br)c2)CCC/C1=C\c1ccc(O)c(Br)c1 | Cryptosporidium parvum | parasite growth, qRT-PCR | HCT-8 | 44 h | – | EC50 | 8600 nM
CC1(F)CN(C(=O)Cn2c(=O)c(C(=O)NCc3ccc(Cl)cc3)cc3nc(N4CCN(CCN)C4=O)cnc32)C1 | human cytomegalovirus | viral cytopathic effect | MRC-5, Davis | 168 h | – | EC50 | 200 nM
Cc1ccc2c(c1)nc(NC(=O)c1cccc(C(F)(F)F)c1)n2[C@H]1CC[C@H](N)CC1 | Trypanosoma cruzi | intracellular amastigote growth | Tulahuen | – | – | EC50 | 1320 nM and 1220 nM
Cc1ccc(C(NC(=O)c2cc(-c3ccccc3)n(-c3ccccc3)n2)c2ccncc2)cc1 (stereo not drawn) | dengue virus 2 | viral replication, immunofluorescence | Vero, New Guinea C | – | – | EC50 | 6700 nM
CC(C)=CCC/C(C)=C/CC/C(C)=C/CN1C[C@H](O)[C@@H](O)[C@H](O)[C@H]1CO | GBA1 (Homo sapiens, UniProt P04062, R534H) | inhibitor, 4MU-β-D-glucopyranoside | – | together with: 4MU-β-D-glucopyranoside | – | IC50 | 2170 nM
CC1=C(C)C(Oc2c(F)cc3c(C)cc(=O)oc3c2F)OC1=O (racemic) | Phelipanche ramosa | seed germination, stimulant | seeds | – | – | EC50 | 4.7 nM
O=C(Nc1cccc(CO)c1)c1cc(-c2ccccc2)n(-c2ccccc2)n1 | dengue virus 2 | viral replication, immunofluorescence | Vero, New Guinea C | – | – | EC50 | 4100 nM
O=[N+]([O-])c1cn2c(n1)O[C@@H](COc1ccc(-c3ccc(F)cc3)nc1)CC2 | Trypanosoma cruzi | reporter mRNA translation, inhibitor, item: capped polyadenylated Renilla luciferase mRNA | cell-free extract | concentration not given | relative to: control RNA | relative translation | 125%
Cn1c(=O)c(-c2ccccc2Cl)cc2cnc(Nc3cccc(S(C)(=O)=O)c3)nc21 | Cryptosporidium parvum | parasite growth, high-content imaging | HCT-8, BGF | 48 h | – | EC50 | 70 ± 10 nM
CC1(c2ccccc2)CC(C)(C)N(C(=O)c2cc([N+](=O)[O-])cc([N+](=O)[O-])c2)c2ccccc21 (stereo not drawn) | Trypanosoma cruzi | reporter mRNA translation, inhibitor, item: capped polyadenylated Renilla luciferase mRNA | cell-free extract | concentration not given | relative to: control RNA | relative translation | 108%
Cc1cc(C(=O)Nc2nc3cccc(C)c3n2[C@H]2CCCCN(C(=O)/C=C/CN(C)C)C2)ccn1 | Trypanosoma brucei gambiense | growth inhibition, CellTiter-Glo | STIB930 | 48 h | – | EC50 | 41 nM and 73 nM and 88 nM and 29 nM

Repeated from above:
Compound | target or system | test | test system | conditions | scale | measurement | value
CC1(c2ccccc2)CC(C)(C)N(C(=O)c2cc([N+](=O)[O-])cc([N+](=O)[O-])c2)c2ccccc21 (stereo not drawn) | Trypanosoma cruzi | reporter mRNA translation, inhibitor, item: capped polyadenylated Renilla luciferase mRNA | cell-free extract | concentration not given | relative to: control RNA | relative translation | 108%
